Results pooled from the literature.
Lines come from different studies, so protocols differ. “And” joins repeats or separate records; there may be more than shown. Numbers after ± are the reported error.
MAPKAPK5: MAP kinase-activated protein kinase 5 (MAPKAPK5, Homo sapiens, UniProt Q8IW41)
Sequence of UniProt Q8IW41 (whole entry, looked up): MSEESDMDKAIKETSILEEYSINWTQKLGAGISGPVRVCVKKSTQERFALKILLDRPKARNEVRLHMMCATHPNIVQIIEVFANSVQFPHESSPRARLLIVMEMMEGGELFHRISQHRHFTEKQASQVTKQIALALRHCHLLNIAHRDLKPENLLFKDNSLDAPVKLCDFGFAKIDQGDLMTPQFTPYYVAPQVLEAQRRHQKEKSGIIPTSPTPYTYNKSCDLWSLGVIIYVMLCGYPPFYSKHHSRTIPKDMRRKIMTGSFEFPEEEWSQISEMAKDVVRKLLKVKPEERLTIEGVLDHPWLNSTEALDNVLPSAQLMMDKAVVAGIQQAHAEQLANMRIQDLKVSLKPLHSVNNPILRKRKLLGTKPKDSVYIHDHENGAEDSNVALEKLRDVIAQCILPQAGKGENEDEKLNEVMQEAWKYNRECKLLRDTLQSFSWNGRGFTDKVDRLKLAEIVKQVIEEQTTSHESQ
Ahr: Aryl hydrocarbon receptor (Ahr, Rattus norvegicus, UniProt P41738)
Sequence of UniProt P41738 (whole entry, looked up): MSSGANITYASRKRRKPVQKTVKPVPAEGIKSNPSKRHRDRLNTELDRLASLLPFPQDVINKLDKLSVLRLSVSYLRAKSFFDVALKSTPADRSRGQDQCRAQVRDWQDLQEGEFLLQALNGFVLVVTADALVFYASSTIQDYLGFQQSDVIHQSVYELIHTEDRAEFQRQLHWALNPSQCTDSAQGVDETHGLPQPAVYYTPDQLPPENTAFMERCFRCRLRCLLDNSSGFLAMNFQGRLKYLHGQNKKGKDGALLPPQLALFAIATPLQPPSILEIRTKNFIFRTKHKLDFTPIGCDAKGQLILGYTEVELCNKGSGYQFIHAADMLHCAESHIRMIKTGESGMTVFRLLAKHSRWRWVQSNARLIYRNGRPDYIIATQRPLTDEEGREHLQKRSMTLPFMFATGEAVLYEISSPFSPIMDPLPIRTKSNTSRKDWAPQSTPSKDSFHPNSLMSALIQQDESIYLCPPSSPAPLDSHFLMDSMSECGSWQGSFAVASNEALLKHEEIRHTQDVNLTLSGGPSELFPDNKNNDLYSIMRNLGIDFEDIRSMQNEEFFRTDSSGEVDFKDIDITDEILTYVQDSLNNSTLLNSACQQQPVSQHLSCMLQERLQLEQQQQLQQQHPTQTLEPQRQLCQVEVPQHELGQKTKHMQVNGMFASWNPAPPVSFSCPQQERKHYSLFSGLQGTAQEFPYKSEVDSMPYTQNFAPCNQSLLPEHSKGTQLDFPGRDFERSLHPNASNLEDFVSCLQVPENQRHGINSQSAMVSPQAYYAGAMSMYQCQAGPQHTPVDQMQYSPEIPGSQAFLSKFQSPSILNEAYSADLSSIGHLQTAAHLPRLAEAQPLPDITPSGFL
BMPR1B: Bone morphogenetic protein receptor type-1B (BMPR1B, Homo sapiens, UniProt O00238)
Sequence of UniProt O00238 (whole entry, looked up): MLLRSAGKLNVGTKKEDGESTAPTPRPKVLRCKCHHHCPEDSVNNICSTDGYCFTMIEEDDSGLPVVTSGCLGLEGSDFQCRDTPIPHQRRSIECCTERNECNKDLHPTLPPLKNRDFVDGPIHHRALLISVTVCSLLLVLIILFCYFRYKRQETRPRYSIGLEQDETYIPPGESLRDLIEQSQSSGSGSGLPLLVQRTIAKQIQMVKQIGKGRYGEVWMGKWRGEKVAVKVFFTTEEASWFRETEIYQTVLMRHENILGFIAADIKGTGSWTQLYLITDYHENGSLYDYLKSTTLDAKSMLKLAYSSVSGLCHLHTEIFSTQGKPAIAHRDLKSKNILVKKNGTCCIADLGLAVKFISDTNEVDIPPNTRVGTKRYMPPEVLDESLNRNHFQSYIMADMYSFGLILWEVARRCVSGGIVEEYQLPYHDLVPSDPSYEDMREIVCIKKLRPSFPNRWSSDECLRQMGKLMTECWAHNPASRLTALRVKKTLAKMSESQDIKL
uncharacterized protein: uncharacterized protein (Anopheles coluzzii, UniProt A0A6E8VQK1)
Sequence of UniProt P68402 (whole entry, looked up): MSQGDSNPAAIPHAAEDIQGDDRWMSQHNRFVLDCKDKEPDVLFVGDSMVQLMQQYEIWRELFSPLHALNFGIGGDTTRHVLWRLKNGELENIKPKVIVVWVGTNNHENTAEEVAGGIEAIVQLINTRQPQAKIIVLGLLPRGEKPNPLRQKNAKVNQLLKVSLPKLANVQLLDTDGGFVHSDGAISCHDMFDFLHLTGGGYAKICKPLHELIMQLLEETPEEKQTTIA
Sequence of UniProt P27361 (whole entry, looked up): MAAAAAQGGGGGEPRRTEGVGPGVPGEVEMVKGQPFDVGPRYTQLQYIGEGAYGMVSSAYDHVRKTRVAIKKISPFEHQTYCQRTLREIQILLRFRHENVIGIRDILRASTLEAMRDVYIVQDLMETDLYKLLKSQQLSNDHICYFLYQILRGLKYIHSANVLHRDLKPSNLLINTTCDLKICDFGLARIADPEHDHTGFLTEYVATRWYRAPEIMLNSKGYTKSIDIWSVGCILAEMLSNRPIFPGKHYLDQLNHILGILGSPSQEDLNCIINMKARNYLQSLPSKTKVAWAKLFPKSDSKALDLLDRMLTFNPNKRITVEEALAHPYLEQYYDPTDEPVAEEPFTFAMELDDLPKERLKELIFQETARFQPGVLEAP
Sequence of UniProt P23443 (whole entry, looked up): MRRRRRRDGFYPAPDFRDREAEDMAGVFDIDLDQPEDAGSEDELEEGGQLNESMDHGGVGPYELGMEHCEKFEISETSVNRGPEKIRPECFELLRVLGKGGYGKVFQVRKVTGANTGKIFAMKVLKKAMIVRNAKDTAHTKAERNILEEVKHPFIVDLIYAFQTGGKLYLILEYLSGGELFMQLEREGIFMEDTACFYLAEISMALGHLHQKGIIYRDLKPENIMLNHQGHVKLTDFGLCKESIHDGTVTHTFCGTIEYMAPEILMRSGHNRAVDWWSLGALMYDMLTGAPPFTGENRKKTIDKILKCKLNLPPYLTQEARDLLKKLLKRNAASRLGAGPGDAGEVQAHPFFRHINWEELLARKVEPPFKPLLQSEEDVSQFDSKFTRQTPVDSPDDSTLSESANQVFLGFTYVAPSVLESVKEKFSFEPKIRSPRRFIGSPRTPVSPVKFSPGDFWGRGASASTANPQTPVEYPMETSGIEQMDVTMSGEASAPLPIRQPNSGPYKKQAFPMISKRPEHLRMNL
Sequence of UniProt Q92731 (whole entry, looked up): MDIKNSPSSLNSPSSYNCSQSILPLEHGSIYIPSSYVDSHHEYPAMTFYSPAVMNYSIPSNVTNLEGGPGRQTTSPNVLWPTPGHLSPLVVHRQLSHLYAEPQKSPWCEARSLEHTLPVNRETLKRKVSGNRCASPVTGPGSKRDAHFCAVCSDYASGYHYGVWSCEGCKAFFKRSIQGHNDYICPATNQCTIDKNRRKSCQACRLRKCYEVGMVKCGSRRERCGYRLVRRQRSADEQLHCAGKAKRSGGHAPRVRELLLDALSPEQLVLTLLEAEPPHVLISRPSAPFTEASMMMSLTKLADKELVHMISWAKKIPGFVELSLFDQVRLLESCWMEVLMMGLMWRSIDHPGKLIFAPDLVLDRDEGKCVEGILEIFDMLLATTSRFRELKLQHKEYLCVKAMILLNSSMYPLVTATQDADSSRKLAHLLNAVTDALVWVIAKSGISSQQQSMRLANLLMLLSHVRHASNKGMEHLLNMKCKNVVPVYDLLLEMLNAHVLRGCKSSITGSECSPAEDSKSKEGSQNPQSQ
Sequence of UniProt P37088 (whole entry, looked up): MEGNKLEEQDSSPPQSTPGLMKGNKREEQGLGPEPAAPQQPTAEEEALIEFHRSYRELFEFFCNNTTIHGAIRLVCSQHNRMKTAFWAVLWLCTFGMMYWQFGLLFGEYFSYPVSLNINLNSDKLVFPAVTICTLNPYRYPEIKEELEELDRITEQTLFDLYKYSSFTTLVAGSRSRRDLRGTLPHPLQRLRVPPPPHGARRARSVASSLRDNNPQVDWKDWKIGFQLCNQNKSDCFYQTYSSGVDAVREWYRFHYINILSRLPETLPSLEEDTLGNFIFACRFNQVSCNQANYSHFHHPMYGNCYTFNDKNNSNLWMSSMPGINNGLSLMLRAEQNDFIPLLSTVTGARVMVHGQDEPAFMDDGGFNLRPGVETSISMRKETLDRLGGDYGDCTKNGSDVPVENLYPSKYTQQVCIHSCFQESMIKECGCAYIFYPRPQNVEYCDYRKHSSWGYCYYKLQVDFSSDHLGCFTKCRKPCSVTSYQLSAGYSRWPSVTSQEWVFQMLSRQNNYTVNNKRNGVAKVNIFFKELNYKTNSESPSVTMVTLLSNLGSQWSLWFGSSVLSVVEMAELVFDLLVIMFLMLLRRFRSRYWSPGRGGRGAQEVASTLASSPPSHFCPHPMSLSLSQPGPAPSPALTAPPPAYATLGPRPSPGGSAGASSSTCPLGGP
Sequence of UniProt P62136 (whole entry, unmodified, looked up): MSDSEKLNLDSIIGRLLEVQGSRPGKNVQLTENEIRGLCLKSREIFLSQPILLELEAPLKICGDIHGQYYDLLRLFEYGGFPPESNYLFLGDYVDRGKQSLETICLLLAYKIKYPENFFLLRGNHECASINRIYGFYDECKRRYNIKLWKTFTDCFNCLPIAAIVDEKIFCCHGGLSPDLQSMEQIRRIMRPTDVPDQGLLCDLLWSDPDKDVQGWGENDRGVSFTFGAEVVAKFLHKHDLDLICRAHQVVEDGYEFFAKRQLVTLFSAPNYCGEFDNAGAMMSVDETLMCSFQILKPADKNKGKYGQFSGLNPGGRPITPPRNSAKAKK
Sequence of UniProt Q99677 (whole entry, looked up): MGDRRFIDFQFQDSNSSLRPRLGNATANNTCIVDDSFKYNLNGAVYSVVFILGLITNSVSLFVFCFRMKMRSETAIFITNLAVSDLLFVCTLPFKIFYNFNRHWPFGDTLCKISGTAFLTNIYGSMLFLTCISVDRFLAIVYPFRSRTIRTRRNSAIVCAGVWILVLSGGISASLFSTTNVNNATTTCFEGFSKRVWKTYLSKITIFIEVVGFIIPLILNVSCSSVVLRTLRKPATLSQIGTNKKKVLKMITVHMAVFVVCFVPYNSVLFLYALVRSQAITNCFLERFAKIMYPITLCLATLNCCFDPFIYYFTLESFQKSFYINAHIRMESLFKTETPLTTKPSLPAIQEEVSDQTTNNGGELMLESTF

| Compound | target | assay | system | setting | how to read | measurement | result |
| --- | --- | --- | --- | --- | --- | --- | --- |
| COc1ccc(N2C(=O)N(c3c(C)cccc3Cl)Cc3cnc(Nc4ccc(C5CCN(C)CC5)cc4OC)nc32)nc1 | RPS6KB1 (Homo sapiens, UniProt P23443) | kinase activity, inhibitor |  | 0.5 µM, kinase P70S6K1 |  | inhibition | 5.28% |
| O=C(O)COP(=O)(O)O | TPI1 (Saccharomyces cerevisiae, UniProt P00942, Y208S) | enzyme activity, competitive inhibitor, GPDH/NADH-coupled |  | pH 6.4, 25 °C, ionic strength 0.1 NaCl, together with: glyceraldehyde 3-phosphate substrate | baseline: mutant over wild type | Ki ratio | 63 |
| CN(C(=O)n1cnc(-c2ccc[n+]([O-])c2)c1)C1CCCCC1 | Signal peptidase complex catalytic subunit SEC11A (Sec11a, Rattus norvegicus, UniProt P42667) | enzyme activity, ABPP | rat, brain | oral, 30 mg/kg/day, 28 days | baseline: vehicle | fold change | -16.5 |
| C/C=C(/C)C(=O)O[C@H]1C(C)=C2[C@H]([C@@H]1OC(=O)CCCCCCC)[C@@](C)(OC(C)=O)C[C@H](OC(=O)CCC)[C@@]1(O)[C@H]2OC(=O)[C@@]1(C)O | Protein transport protein Sec61 subunit alpha isoform 1 (Homo sapiens, UniProt P61619) | reporter gene, inhibitor, dual luciferase | HEK293 with SP-CD4-FLuc reporter | concentration not given |  | FLuc/RLuc ratio | 6.75 and 5.01 and 4.17 and 6.11 |
| NCCc1c[nH]c2ccc(O)cc12 | Htr1b (Rattus norvegicus, UniProt P28564) | radioligand binding, antagonist |  | reference compound |  | Hill coefficient | 0.7 |
| CC(=O)N[C@@H](CO)C(=O)N[C@@H](Cc1ccccc1)C(=O)N[C@@H](CCC(=O)O)C(=O)N[C@@H](Cc1ccccc1Cl)C(=O)N1CCC[C@H]1C(=O)N1CCC[C@H]1C(=O)N1CCC[C@H]1C(=O)N1CCC[C@H]1C(=O)N[C@H](C(=O)N[C@@H](CCC(=O)O)C(=O)N[C@@H](CC(=O)O)C(=O)N[C@@H](CCC(=O)O)C(=O)N[C@@H](CC(C)C)C(N)=O)[C@@H](C)O | Vasodilator-stimulated phosphoprotein, EVH1 domain (VASP, Homo sapiens, UniProt P50552) | fluorescence titration |  | 25 °C |  | binding free energy | -7.96 kcal/mol |
| COC(=O)[C@@]1(O)C[C@H]2O[C@]1(C)n1c3ccccc3c3c4c(c5c6ccccc6n2c5c31)C(=O)NC4 | MAPK3 (Homo sapiens, UniProt P27361) | ADP-Glo |  | 50 µM, together with: MBP substrate |  | kinase activity | 108% and 99.3% and 122% |
| O=C(Nc1cnccc1Cl)N1CCN(Cc2ccc3c(c2)OC(F)(F)O3)CC1 | MAPKAPK5 | kinase activity, inhibitor |  | 10 µM, together with: PRAK peptide substrate |  | inhibition | -11% |
| O=c1c2ccccc2oc2cc(OCCCCc3ccccc3)ccc12 | ache (Electrophorus electricus, UniProt O42275) | enzyme activity |  | 0.73 µM, together with: substrate 0.86 mM | higher = faster reaction | reaction velocity | 0.001 a.u. |
| CN(C(=O)n1cnc(-c2ccc[n+]([O-])c2)c1)C1CCCCC1 | MAPKAPK5 | kinase activity, inhibitor |  | 50 µM, together with: PRAK substrate peptide |  | inhibition | -1% |
| Oc1ccc(Cl)cc1Cl | FABP4 (Homo sapiens, UniProt P15090) | binding, affinity selection mass spectrometry |  | 100 nM, pooled screen | baseline: other proteins | fold change | 57 |
| COc1cc(C(=O)N2CC[C@@H](O)[C@@H](N)C2)cc2nc(-c3cc4ccccc4n3CC3CC3)n(C)c12 | PADI3 (Homo sapiens, UniProt Q9ULW8) | enzyme activity, cell lysate | HEK293 expressing PADI3 | 100 µM, together with: calcium 2 mM |  | citrullination | no effect |
| C[n+]1ccc(-c2ccccc2)cc1 | SLC18A2 (Homo sapiens, UniProt Q05940) | substrate, [3H] uptake | HEK293 expressing VMAT2, isolated vesicles |  |  | reserpine-sensitive uptake | 1390 fmol/µg protein |
| c1ccc2c(c1)cc1ccc3cccc4ccc2c1c34 | Ahr | reporter gene, agonist | H4IIE-luc rat hepatoma cells | 0.2 to 50 nM |  | EC80 | 3.7 log fmol/well |
| O=C1c2ccccc2C(=O)C1C(=O)C(c1ccccc1)c1ccc(Cl)cc1 (stereo not shown) | Nuclear receptor subfamily 1 group I member 3 (Homo sapiens, UniProt Q14994) |  |  | concentration not given |  | activity | inactive |
| c1cncc([C@@H]2CCCN2)c1 | Chrnd/Chrna1/Chrne (Mus musculus, UniProt P02716+P04756+P20782, G173K/S470W) | ligand binding, agonist, single-channel kinetics |  | chain K | baseline: wild type over mutant | affinity ratio | 1.4 |
| Nc1ncc(-c2nc(N3CCOCC3)nc(N3CCOCC3)n2)c(C(F)F)n1 | BMPR1B | KINOMEscan |  | 10 µM |  | remaining binding | 72% |

| Compound | target | assay | system | setting | how to read | measurement | result |
| --- | --- | --- | --- | --- | --- | --- | --- |
| CC[C@H](C)[C@H](NC(=O)CNC(=O)[C@@H](N)CCCCN)C(=O)N[C@@H](CC(C)C)C(=O)N[C@@H](CCCCN)C(=O)N[C@@H](CC(N)=O)C(=O)N[C@@H](CCCNC(=N)N)C(=O)N[C@@H](C)C(=O)N[C@@H](CCCNC(=N)N)C(=O)N[C@@H](CCCNC(=N)N)C(=O)N[C@@H](CCC(=O)O)C(=O)N[C@@H](CCCNC(=N)N)C(=O)N1CCC[C@H]1C(=O)NCC(=O)N[C@@H](CCCCN)C(=O)N[C@@H](CCCNC(=N)N)C(=O)N[C@@H](CCCCN)C(=O)N[C@@H](CC(N)=O)C(=O)N[C@H](C(=O)N[C@@H](Cc1c[nH]cn1)C(=O)N[C@@H](Cc1c[nH]c2ccccc12)C(=O)N1CCC[C@H]1C(=O)N[C@@H](CCC(=O)O)C(=O)N[C@@H](CCC(=O)O)C(=O)NCC(=O)N[C@@H](CCCCN)C(=O)N[C@@H](CC(C)C)C(=O)N[C@@H](CCCNC(=N)N)C(=O)N[C@@H](CCC(=O)O)C(=O)N[C@@H](Cc1ccc(O)cc1)C(=O)N[C@@H](Cc1ccccc1)C(=O)N[C@@H](Cc1ccc(O)cc1)C(=O)N[C@@H](Cc1ccccc1)C(=O)N[C@@H](CCC(=O)O)C(=O)N[C@@H](CC(C)C)C(=O)N[C@@H](CC(=O)O)C(=O)N[C@@H](CCC(=O)O)C(=O)N[C@@H](C)C(=O)N[C@@H](CCC(=O)O)C(=O)N[C@@H](CCCNC(=N)N)C(=O)N[C@H](C(=O)N[C@@H](CC(N)=O)C(=O)N[C@H](C(=O)O)C(C)C)C(C)C)C(C)C | PPP1CA (Homo sapiens, UniProt P62136) | binding, isothermal titration calorimetry |  | concentration not given, 25 °C, PP1α residues 7-330 |  | enthalpy change ΔH | -35.3 ± 0.1 kcal/mol |
| CC1(C)[C@H](C(=O)O[C@H](C#N)c2cccc(Oc3ccccc3)c2)[C@@H]1C=C(Br)Br | uncharacterized protein | enzyme activity, inhibitor | Sf9 cell homogenate | 4.545 µM, 0.1667 h, together with: α-naphthyl acetate substrate | baseline: no inhibitor | remaining activity | 100% |
| CCCCCCCCCCCCCCCCCC[N+](C)(C)C.[Br-] | Sodium channel protein type 4 alpha, BTX-activated (Oryctolagus cuniculus, UniProt G1SLL9) |  |  |  |  | mean closed time | ~500 ms |
| O=C(Cc1cccs1)N[C@@H]1C(=O)N2C(C(=O)O)=C(/C=C/c3ccc([N+](=O)[O-])cc3[N+](=O)[O-])CS[C@H]12 | blaNDM-1 (Klebsiella pneumoniae, UniProt C7C422, C208S) | substrate, steady-state kinetics |  |  |  | kcat | 4.1 ± 0.2 s⁻¹ |
| NC[C@H](NC(=O)c1ccc(-c2ccc(Br)cc2)cc1)C(=O)NO | UDP-3-O-acyl-N-acetylglucosamine deacetylase (Pseudomonas aeruginosa, UniProt P47205, C40S) | ITC |  | concentration not given, 298 K |  | ΔS of binding | 0.143 kJ/(mol·K) |
| COc1cc(N)c(Cl)cc1C(=O)NC1CN2CCC1CC2 (stereo not shown) | LPAR4 (Homo sapiens, UniProt Q99677) | β-arrestin recruitment, TANGO luminescence, item: GPR23 |  | concentration not given | baseline: basal luminescence | log2 fold change | -0.029 |
| O=C(Nc1cccnn1)N1CCC(=Cc2cccc(Oc3ccc(C(F)(F)F)cn3)c2)CC1 | ESR2 (Homo sapiens, UniProt Q92731) | radioligand binding |  | 10 µM, together with: [3H]estradiol |  | inhibition of binding | -5% |
| [2H]c1c([2H])c([C@]2([2H])CCCN2C(=O)C(C)(C)Oc2ccc3cn[nH]c3c2)c([2H])c([2H])c1C([2H])([2H])[2H] | WNK1 (Homo sapiens, UniProt Q9H4A3) | KINOMEscan |  | 1 µM | baseline: DMSO control | remaining binding | 100% |
| Clc1cc2c(cc1Cl)Oc1cc(Cl)c(Cl)cc1O2 | Ahr | reporter gene, agonist |  | 96-well format |  | Hill slope | 41.9 |
| CC1(C)C(C=C(Cl)Cl)C1C(=O)OCc1cccc(Oc2ccccc2)c1 (stereo not shown) | uncharacterized protein | enzyme activity, inhibitor | Sf9 cell homogenate | 24.7 µM, 0.1667 h, together with: α-naphthyl acetate substrate | baseline: no inhibitor | remaining activity | 96.7% |
| O=P(O)(O)OC[C@H]1C[C@@](O)(CO)[C@@H](O)[C@H](O)[C@@H]1O | 2-epi-valiolone synthase (Actinosynnema mirum, UniProt C6WFL3) | phosphate release |  | 10 µM |  | apparent Vmax | 2.1 ± 0.2 µM/min |
| CN1CCN(c2cc(-c3ccncc3)c(-c3ccc4ccccc4c3)nn2)CC1 | MCHR2 (Homo sapiens, UniProt Q969V1) | agonist, FLIPR |  | 12.5 µM |  | activation | 7.3% |
| O=C(c1ccc(Cl)cc1)N1CCN2C(=O)N(OC(=O)N3CCOc4ccccc43)C(=O)C2C1 (stereo not shown) | Platelet-activating factor acetylhydrolase IB subunit alpha2 (Homo sapiens, UniProt P68402) | MS-based ABPP | SW-620 conditioned medium | 10 µM, 1 h, 37 °C | baseline: compound over DMSO, lower = more inhibition | peptide ratio | 1.06 and 0.91 and 0.89 and 0.94 |
| CC(C)C[C@H](NC(=O)[C@@H]1CCCN1C(=O)[C@H](CCCNC(=N)N)NC(=O)[C@H](CC(C)C)NC(=O)[C@H](CCCNC(=N)N)NC(=O)[C@H](CC(=O)O)NC(=O)[C@H](Cc1ccc(O)cc1)NC(=O)[C@H](CC(=O)O)NC(=O)[C@H](CCC(=O)O)NC(=O)[C@H](CCC(N)=O)NC(=O)CN)C(=O)O | Epithelial sodium channel subunit alpha (Homo sapiens, UniProt P37088) | binding, bio-layer interferometry |  |  |  | koff | 0.0197 s⁻¹ |
| C[C@H]1CN(c2n[nH]c3nc(N[C@H]4CC[C@H](NS(=O)(=O)CCC(F)(F)F)CC4)ncc23)CCO1 | ATP1A1 (Homo sapiens, UniProt P05023) | inhibitor, Kinobeads competition profiling |  | 0.16 µM | baseline: vehicle | relative abundance | 1.14 |
| COc1cc(Nc2ncc(F)c(Nc3ccc4c(n3)NC(=O)C(C)(C)O4)n2)cc(OC)c1OC | BMPR1B | KINOMEscan |  | 10 µM |  | inhibition | 74% |
| Nc1nc2c(ncn2[C@@H]2O[C@@H]3COP(=O)(O)O[C@H]4[C@@H](O)[C@H](n5cnc6c(=O)[nH]c(N)nc65)O[C@@H]4COP(=O)(O)O[C@H]3[C@H]2O)c(=O)[nH]1 | Cell cycle histidine kinase CckA, R374A; cytoplasmic region (Caulobacter vibrioides, UniProt Q9X688, R374A) | isothermal titration calorimetry | Caulobacter crescentus | concentration not given, 12 °C, together with: AMPPNP 5 mM |  | binding enthalpy (ΔH) | 0.7 kcal/mol |

A few entries again:
| Compound | target | assay | system | setting | how to read | measurement | result |
| --- | --- | --- | --- | --- | --- | --- | --- |
| C/C=C(/C)C(=O)O[C@H]1C(C)=C2[C@H]([C@@H]1OC(=O)CCCCCCC)[C@@](C)(OC(C)=O)C[C@H](OC(=O)CCC)[C@@]1(O)[C@H]2OC(=O)[C@@]1(C)O | Protein transport protein Sec61 subunit alpha isoform 1 (Homo sapiens, UniProt P61619) | reporter gene, inhibitor, dual luciferase | HEK293 with SP-CD4-FLuc reporter | concentration not given |  | FLuc/RLuc ratio | 6.75 and 5.01 and 4.17 and 6.11 |
| CC(C)C[C@H](NC(=O)[C@@H]1CCCN1C(=O)[C@H](CCCNC(=N)N)NC(=O)[C@H](CC(C)C)NC(=O)[C@H](CCCNC(=N)N)NC(=O)[C@H](CC(=O)O)NC(=O)[C@H](Cc1ccc(O)cc1)NC(=O)[C@H](CC(=O)O)NC(=O)[C@H](CCC(=O)O)NC(=O)[C@H](CCC(N)=O)NC(=O)CN)C(=O)O | Epithelial sodium channel subunit alpha (Homo sapiens, UniProt P37088) | binding, bio-layer interferometry |  |  |  | koff | 0.0197 s⁻¹ |
